# Published values of several laboratories.
# Parts stem from different laboratories: compare values within a part only.

# Sample 1 — technique: EMSA with sequencing; molecule type: double-stranded DNA, one strand shown; sample: in vitro; concentration: 10 and 20 nM; reference: negative control set to 0; reading: higher = stronger binding
# Target: Hepatocyte nuclear factor 3-alpha (Foxa1, Mus musculus, UniProt P35582, residues 1-468, full length assumed)
# Setting: whole designed probe, mean of two concentrations, ends assumed
# Residues (chain): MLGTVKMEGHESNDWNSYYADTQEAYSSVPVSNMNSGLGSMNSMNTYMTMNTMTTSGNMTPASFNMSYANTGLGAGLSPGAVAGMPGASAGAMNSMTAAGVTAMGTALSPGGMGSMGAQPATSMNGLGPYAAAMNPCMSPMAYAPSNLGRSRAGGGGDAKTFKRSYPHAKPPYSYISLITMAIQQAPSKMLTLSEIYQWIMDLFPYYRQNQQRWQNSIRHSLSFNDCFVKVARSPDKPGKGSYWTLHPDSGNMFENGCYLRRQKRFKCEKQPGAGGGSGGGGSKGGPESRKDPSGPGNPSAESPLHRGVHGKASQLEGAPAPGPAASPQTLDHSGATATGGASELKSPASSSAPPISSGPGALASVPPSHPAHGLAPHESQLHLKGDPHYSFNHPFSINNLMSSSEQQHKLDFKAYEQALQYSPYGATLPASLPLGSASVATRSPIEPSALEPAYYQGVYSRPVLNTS
Sequence,normalised bound fraction [ratio]
GTGAGCGGTGCCCATTGATGGGGAACACAATGTGTTTTCCAAAGAGATCTAAATTTAACAAAGTTGTAGGTGAGGAAGCCCTGCTTTTGCATTATAATTTAATTAATTAGCATTTATTTTTGTTTACTTTGAATGTCTTTGCATGCTCATATGAAAATACATACATTTACAATAATTCAGATGTAGACCTGTCAGATATCAACTCCTCAGGTAGAATGATTTCACTGGGATCGTGGGGAC,0.452
GTGAGCGGTGCCCATTGATGGGGAACTAGCTACATCCTCTCTCCCCACATCAAGGAAGTGGCACTTCAATCCCCACCCTTTGAGTGTGAACTGCACTTATGACACCTGAGGGAGGAAAAGTAATTTCGGTGGATCAACCTGGCAAACACTTTCTGACTCATACAGTCAAGGTTAATATCCACATGATAAGACATGTCGATCGCATACACCCCTGATATGTTTCACTGGGATCGTGGGGAC,-0.0404
GTGAGCGGTGCCCATTGATGGGGAACATCTTCCCCCTCTTCCTTGCCCCACCAGCTCACCTTCCCGGGTTATTTGCAGATAGGAAAATAAATAAAGCCGGCATGATGAATCATGCTTCACGCGCATACTGCTGTTTGCTCTGGATCTAACATGGTCCTTTGGCGACGCCAGGCTCCGGGAGAGCAAAGCACCGTGTCAGGGCCATGATCCGGGGTGGCCTTTCACTGGGATCGTGGGGAC,0.367
GTGAGCGGTGCCCATTGATGGGGAACCACTCAGCTGTTTTCTTAAACTTGGTTGAATAACTGGTATTCTTCCTGCTCACAAAGTCTTTGTTAGTGTGCATATTGCAAAACCATCCTAAGTAAACAGTCTGTGTCATCTGTATTAAAGGGAAGTTATGCATGGATTAGTGTATAATAGCATGGGTTAGGGAGAAAAATGAGTCACCAAAGTAGCTGGTTCTTTCACTGGGATCGTGGGGAC,0.43

# Sample 2 — technique: RNA Bind-n-Seq; molecule type: RNA; sample: in vitro; concentration: 365 nM; reference: no-protein control; reading: higher = stronger binding
# Target: RNA binding protein fox-1 homolog 2, RRM domain, GST-SBP tag (RBFOX2, Homo sapiens, UniProt O43251-10, residues 100-194)
# Setting: natural RNA segment, single round, ends assumed
# Residues (chain): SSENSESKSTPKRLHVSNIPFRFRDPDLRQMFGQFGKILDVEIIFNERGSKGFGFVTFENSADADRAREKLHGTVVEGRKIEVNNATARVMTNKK
Sequence,RBNS enrichment (R)
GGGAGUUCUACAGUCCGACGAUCUGGGAUUUGCAGAUGUGUUUAGAAACACGCCCAGACCUUGAACCUUGGGUUCAUGGAUUAGUUUUGUAUCUAAAACAGGAAACAAGUCAGAUGAUGUGGUUUGUACACUUUGGAAUUCUCGGGUGCCAA,0.746
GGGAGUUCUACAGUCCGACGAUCAAAGAAAAGUUGAUGAUAGAUUGCCUUCACCCUCACAGCGCACAAAUAAAGCUACGAUGCCAACUUUCAGAUGCAAGAAUGAAGACACUGUGUGGGUAGGGCACUGAGCUUGGAAUUCUCGGGUGCCAA,0.538
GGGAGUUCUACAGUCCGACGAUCACUGCUGAAGGGCUUCUUCUUAUAGCAAGAACUCUGCACAGCAACUGCCUGGAUGUGUUUGAUUUUUUAAAGCGUAGACAUAUAUUUAUGAAUGUGCAUUUCUUGACUUCUGGAAUUCUCGGGUGCCAA,3.12
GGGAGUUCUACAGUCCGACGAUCCACACACACACCAUUUUAGGAAGUGGUUCUCCUACUGGAAAAUAUGCUACAGAAUGAAAGUUUGUAAUUGAAAGAAAAAGAAUGUAUUCAUCUGCUUCUUGGGUUUAAGCUGGAAUUCUCGGGUGCCAA,0.665
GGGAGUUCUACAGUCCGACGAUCCAGGUCUCAGGAGUGCCAUCCCCGGGCUCAGCUCCAGUUCCCUGGGCUCAUGCUACUAGUGCUCUGGGCCCAGUGACCAUGCACCUUCACCCCAGGCAGGCCCUGUGUACUGGAAUUCUCGGGUGCCAA,0.305
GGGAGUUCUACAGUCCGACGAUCCUCAAAGCAGCCAGCAAUGAGUGCUCUGUUUUGAUCCUUCUUCUUAUUAUGGAAAGGAGUACAGGACCUCUUCAGUCUUCCCCUUACCAGAGGUAGCCUCUGCAAAUGGCUGGAAUUCUCGGGUGCCAA,0.261
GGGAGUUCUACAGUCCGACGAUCGAUCUGGCUGGCUUGGAUCUCGUUUUUAACCCGUUCCUGCCCCACCUGCCCUAUAGUUAUGGCCUGUGUUCUGCUCUCCUGGUCCCAGUGCACCGUCUGCUCUGUGAACUUGGAAUUCUCGGGUGCCAA,0.255
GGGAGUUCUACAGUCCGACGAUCCUGAGGCCGAUCCGGGACCGGCCUCCUUGCGUCUCCCAUUCCCAAGAUUGUCCCGCCUCUGCCAAUCCCCGCCGUCCUUCCAGCCCACGACCUGCCGCGCCGAGGAGCGGUGGAAUUCUCGGGUGCCAA,0.673
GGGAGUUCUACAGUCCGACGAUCUCCUCACGCUGCAGACGCCCCCUAGAGGAACUUUCCUUCCUUUCCAGCAUUCCCCACAGCACUGCCGGCCAGGGGAGAGGCGGCAGCCCAGCAGAGGGCUCUAUGCACGGUGGAAUUCUCGGGUGCCAA,0.797

# Sample 3 — technique: RNA Bind-n-Seq; molecule type: RNA; sample: in vitro; concentration: not given; reference: input RNA pool; reading: higher = stronger binding
# Target: RING finger protein unkempt homolog, zinc fingers 1-6, GST-SBP tag (UNK, Homo sapiens, UniProt Q9C0B0, residues 30-357)
# Sequence of UniProt Q9C0B0 (30-357, looked up): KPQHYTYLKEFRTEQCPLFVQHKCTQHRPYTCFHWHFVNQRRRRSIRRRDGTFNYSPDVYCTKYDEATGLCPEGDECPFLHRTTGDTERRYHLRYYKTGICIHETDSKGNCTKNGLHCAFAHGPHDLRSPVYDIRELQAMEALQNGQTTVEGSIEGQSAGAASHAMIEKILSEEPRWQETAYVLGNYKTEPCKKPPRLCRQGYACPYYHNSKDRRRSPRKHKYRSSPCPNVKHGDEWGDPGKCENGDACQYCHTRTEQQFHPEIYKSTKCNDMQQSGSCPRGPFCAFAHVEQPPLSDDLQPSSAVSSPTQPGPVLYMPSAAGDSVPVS
# Setting: RNA with constant flanks, human and mouse sites, ends assumed
Sequence,bound/input enrichment [ratio]
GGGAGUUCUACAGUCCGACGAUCUAUCUUAUAUCACCUCUAGAUUUUGUACCUGAAGCCUUGUUUGGAAUUCUAGGCUUUCUAGAUGAUUUCUUUGUCAUCUUUUUAUUGCUUAUCUACAUCUCUAUUAUGUAUCGAGAAGUGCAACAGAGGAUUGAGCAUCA,1.41
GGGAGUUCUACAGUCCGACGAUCAUCGCCAAGACUCACGAAGAUAUUGAAGCACAGAUUCGAGAAAUUCAAGGCAAGAAGGCAGCUCUUGAUGAAGCUCAAGGAGUGGGCCUCGAUUCUACAGGUUAUUAUGACCAGGAAAUUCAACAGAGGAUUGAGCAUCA,0.218
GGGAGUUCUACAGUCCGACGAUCACAGCCCUUGCCUGGAGCCCAGGAACCCCAUCCUUGCUUCAUCUCAGUUCUUCAUGGGCUUCACUCUUCCCACUCACGGAAGGGAGGUAGCUCAGGGACCUCCACUGUGGGACCCUUGAGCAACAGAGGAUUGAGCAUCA,0.124
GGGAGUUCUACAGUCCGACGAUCCGCCAGCAGAUGAAGGAUGCAGCAGUCUCGGCCCUGGCUGCUCUAUGCAGUGAAUAUUACAUGAAGGAGCCGGGGGAGGCAGAUCCCGCAAUUCAGGAGGAGCUGAUCACGCAGUACCUGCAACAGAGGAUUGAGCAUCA,0.12
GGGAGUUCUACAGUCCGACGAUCUCGCUUCGGCGGAGCCUGGGCUGACCAGCCAGGACAGCGGGGUAAACCCGAACAAUUCUGCGCGAGGUAGGGAGGCCAUGGCGUCCGGCAGUAACUGGCUCUCCGGGGUGAAUGUCGUGCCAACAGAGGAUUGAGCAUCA,0.12
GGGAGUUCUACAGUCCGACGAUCCCUCAUAGCAAUGCAAAAAAUUUUGAUGAGUUACUACUACUAAAACUAGUUAAGUAAAAGAUGAUUCUUAAGAAUUUCCAGGCUGGGCACGGUGGCUCACGCCUGUAAUCCCAGCACUUUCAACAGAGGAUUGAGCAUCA,1.12
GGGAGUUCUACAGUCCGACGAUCCCCGUGUCGAGAGUUUAUUCUAGGGACAGGAAUCAAAAAUGCGGUGCGUCUUUCUACGUGAAUAGGAUUUUGUGGCUGGCCAGAUACACUGCAUCAUCUUUUUCAUCAUUUUUAGUUCAACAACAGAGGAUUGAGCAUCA,3.25
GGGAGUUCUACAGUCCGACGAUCUUUGGGUGGUAUUGAUGGAGCGGUGGAUUUUCCUCCAAGUGGCUAAAUGCAAUUUGACAUACUUUUCAUCCAAAGUUUUGUACAUCCUGUUGUUUUCUAAUGGAAAAAAAAAUGUUAAUACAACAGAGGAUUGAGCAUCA,0.259

# Sample 4 — technique: aptamer microarray, sandwich; molecule type: DNA with 2'F-ANA; sample: in vitro; concentration: 200 nM; added: Cy3 exosite-II aptamer, 400 nM; reading: higher = stronger binding; sequence: GGTTGGTGTGGTTGG
# Target: Prothrombin, mature alpha-thrombin (F2, Homo sapiens, UniProt P00734)
# Setting: whole 15-mer aptamer, many near background
Modification,mean fluorescence intensity [a.u.]
2'F-ANA at 3 10 12 13 14,508
2'F-ANA at 2 3 4 5 8 11 14,57.3
2'F-ANA at 1 4 5 6 7 9 10 11 14 15,52.9
2'F-ANA at 2 9 10 12 14 15,87.1
2'F-ANA at 2 5 9 10 11 12 13,50.7
2'F-ANA at 1 2 4 5 6 7 11 12 13 14,60.2
2'F-ANA at 2 6 7 8 10 11 12,164
2'F-ANA at 1 3 5 7 11 12 13 14 15,50.7
2'F-ANA at 2 3 4 6 7 9 12,656
2'F-ANA at 2 4 5 6 10 11 12 13,79
2'F-ANA at 2 3 4 5 6 9 11 13 14 15,48
2'F-ANA at 1 3 5 6 7 8 9 10 13 14 15,44.7
2'F-ANA at 5 7 12 14 15,47.4
2'F-ANA at 1 2 4 5 11 13 15,53.4
2'F-ANA at 2 3 4 7 11 15,536
2'F-ANA at 2 3 4 7 11 12 13,649

# For quick reference, copied from above (sample 3):
Sequence,bound/input enrichment [ratio]
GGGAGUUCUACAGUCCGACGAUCCGCCAGCAGAUGAAGGAUGCAGCAGUCUCGGCCCUGGCUGCUCUAUGCAGUGAAUAUUACAUGAAGGAGCCGGGGGAGGCAGAUCCCGCAAUUCAGGAGGAGCUGAUCACGCAGUACCUGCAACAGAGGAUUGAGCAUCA,0.12
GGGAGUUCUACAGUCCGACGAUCUCGCUUCGGCGGAGCCUGGGCUGACCAGCCAGGACAGCGGGGUAAACCCGAACAAUUCUGCGCGAGGUAGGGAGGCCAUGGCGUCCGGCAGUAACUGGCUCUCCGGGGUGAAUGUCGUGCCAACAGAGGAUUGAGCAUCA,0.12
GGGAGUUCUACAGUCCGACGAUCCCUCAUAGCAAUGCAAAAAAUUUUGAUGAGUUACUACUACUAAAACUAGUUAAGUAAAAGAUGAUUCUUAAGAAUUUCCAGGCUGGGCACGGUGGCUCACGCCUGUAAUCCCAGCACUUUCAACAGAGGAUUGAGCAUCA,1.12
